# Published values collected from several papers.
# “And” joins repeats or separate records; there may be more than shown. ± gives the spread as reported.
# UniProt P49915, sequence (whole entry, looked up): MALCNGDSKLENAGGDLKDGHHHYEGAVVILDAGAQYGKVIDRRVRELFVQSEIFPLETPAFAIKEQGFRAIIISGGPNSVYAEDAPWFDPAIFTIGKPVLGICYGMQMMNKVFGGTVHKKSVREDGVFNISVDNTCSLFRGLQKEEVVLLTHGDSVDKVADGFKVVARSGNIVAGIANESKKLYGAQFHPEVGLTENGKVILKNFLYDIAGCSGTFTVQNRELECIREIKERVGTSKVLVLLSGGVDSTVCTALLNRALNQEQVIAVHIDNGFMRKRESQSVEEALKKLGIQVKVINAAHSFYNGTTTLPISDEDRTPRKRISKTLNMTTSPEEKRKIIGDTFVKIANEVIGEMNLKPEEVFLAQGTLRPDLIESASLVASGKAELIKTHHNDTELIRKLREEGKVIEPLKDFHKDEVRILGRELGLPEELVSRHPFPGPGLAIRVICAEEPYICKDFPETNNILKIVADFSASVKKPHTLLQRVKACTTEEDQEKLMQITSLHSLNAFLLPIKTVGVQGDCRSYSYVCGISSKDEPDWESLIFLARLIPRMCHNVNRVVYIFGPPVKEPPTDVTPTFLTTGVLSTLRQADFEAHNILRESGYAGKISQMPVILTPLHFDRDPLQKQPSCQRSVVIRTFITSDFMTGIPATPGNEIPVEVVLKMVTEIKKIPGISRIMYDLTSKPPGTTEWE
# UniProt P08575, sequence (whole entry, looked up): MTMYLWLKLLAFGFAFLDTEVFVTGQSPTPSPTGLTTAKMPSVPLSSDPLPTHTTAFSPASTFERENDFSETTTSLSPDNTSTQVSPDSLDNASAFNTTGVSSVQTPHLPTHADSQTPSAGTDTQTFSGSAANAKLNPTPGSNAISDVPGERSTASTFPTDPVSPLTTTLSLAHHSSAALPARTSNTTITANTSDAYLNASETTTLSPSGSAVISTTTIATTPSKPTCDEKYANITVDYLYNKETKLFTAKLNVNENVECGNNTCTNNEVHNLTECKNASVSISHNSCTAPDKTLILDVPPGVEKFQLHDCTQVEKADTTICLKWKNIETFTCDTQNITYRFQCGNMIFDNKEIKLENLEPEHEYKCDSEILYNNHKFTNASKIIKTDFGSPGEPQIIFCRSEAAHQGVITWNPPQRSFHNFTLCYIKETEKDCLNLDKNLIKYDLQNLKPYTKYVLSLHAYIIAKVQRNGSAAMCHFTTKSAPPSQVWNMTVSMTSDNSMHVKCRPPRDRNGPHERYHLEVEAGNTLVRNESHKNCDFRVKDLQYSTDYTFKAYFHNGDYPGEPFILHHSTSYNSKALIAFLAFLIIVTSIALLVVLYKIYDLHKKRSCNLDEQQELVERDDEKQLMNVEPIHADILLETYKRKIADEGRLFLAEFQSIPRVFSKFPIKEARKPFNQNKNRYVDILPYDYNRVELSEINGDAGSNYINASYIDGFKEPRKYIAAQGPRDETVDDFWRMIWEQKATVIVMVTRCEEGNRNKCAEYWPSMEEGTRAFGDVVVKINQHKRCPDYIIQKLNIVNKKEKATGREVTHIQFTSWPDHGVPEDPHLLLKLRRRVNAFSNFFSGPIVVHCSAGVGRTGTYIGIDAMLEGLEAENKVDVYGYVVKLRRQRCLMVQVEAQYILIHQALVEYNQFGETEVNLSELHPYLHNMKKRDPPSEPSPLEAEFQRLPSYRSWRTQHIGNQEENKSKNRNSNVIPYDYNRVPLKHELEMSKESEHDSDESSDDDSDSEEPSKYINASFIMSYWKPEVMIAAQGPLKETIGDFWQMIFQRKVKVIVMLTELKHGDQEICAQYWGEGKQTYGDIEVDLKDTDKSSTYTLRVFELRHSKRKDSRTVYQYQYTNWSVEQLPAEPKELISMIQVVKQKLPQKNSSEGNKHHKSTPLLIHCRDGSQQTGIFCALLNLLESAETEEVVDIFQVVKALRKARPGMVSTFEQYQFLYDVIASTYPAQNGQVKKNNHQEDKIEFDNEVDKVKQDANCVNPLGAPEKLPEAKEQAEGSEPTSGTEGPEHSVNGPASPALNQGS
# UniProt Q8TBX8, sequence (whole entry, looked up): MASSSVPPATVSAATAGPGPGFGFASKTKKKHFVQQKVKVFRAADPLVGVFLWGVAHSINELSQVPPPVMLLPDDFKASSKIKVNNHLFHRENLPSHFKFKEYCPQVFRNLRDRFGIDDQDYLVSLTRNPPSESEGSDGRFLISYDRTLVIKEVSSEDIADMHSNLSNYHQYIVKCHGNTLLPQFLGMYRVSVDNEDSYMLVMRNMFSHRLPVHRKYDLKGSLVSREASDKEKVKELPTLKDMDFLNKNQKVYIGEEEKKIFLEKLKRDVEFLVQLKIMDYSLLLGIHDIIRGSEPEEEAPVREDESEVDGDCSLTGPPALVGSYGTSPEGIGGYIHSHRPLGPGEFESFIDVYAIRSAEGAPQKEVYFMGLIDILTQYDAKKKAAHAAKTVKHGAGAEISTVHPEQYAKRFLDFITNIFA
# UniProt Q04609, sequence (whole entry, looked up): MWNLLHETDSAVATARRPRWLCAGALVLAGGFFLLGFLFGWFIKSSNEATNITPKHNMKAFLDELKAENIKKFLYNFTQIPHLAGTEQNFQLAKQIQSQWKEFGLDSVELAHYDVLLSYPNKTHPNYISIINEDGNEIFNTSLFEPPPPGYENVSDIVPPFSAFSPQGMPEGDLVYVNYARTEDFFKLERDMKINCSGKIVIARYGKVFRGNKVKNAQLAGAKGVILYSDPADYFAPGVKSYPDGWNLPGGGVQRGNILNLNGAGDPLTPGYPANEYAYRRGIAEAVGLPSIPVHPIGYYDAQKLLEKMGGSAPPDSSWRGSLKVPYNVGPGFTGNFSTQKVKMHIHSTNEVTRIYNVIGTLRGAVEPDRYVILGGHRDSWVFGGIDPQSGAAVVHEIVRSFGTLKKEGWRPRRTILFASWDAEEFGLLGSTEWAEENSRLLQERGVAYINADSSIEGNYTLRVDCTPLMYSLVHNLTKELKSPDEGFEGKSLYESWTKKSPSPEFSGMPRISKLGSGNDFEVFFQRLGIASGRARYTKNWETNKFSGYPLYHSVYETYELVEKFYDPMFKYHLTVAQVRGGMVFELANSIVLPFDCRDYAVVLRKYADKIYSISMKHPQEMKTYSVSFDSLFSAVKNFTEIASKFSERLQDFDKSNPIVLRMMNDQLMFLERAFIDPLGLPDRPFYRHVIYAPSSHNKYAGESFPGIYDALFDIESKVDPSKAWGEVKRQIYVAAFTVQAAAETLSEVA
# UniProt P23204, sequence (whole entry, looked up): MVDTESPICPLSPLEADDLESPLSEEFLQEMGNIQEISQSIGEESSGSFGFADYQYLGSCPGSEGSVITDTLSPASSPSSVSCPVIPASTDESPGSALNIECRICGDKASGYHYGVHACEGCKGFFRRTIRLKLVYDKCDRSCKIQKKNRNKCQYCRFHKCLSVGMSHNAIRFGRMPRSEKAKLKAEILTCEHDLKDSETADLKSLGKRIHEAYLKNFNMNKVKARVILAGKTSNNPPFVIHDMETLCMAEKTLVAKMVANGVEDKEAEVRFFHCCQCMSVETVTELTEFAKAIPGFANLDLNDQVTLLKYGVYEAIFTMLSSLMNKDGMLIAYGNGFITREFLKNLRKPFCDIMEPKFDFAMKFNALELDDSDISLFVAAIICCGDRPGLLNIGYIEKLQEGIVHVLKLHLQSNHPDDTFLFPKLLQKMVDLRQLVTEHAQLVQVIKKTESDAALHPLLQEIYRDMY
# UniProt P14618, sequence (whole entry, looked up): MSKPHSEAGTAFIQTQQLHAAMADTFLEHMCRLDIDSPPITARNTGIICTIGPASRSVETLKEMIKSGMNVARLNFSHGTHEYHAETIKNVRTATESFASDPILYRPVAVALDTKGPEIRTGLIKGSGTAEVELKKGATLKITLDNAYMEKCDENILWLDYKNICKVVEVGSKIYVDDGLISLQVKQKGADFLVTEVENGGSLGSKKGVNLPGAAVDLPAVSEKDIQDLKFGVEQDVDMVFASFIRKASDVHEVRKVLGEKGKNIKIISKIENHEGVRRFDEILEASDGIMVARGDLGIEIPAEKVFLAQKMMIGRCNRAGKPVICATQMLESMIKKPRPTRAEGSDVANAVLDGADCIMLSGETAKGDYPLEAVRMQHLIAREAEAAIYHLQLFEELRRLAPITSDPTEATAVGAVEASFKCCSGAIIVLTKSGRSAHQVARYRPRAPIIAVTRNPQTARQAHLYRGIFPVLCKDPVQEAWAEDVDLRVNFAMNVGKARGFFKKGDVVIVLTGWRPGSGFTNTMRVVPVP
# UniProt P52564, sequence (whole entry, looked up): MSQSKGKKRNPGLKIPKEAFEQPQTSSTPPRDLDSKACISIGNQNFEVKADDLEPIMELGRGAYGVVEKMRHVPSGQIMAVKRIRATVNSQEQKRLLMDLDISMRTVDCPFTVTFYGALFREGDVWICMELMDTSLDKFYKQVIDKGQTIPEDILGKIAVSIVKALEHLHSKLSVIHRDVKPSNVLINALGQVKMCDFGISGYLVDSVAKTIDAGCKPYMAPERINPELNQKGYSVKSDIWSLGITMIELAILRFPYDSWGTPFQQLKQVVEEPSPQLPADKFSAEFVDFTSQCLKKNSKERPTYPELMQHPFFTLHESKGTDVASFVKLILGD
Compound,tested on,test,test system,setting,how to read,endpoint,value
CC[C@H](C)[C@H](NC(=O)[C@H](Cc1ccccc1)NC(=O)[C@H](CCC(=O)O)NC(=O)[C@H](CCCNC(=N)N)NC(=O)[C@H](C)NC(=O)[C@H](C)NC(=O)[C@H](CCC(N)=O)NC(=O)[C@H](CCC(=O)O)NC(=O)[C@H](CCC(=O)O)NC(=O)[C@H](CC(C)C)NC(=O)[C@H](Cc1ccc(O)cc1)NC(=O)[C@H](CO)NC(=O)[C@H](CO)NC(=O)[C@@H](NC(=O)[C@H](CC(=O)O)NC(=O)[C@H](CO)NC(=O)[C@@H](NC(=O)[C@H](Cc1ccccc1)NC(=O)[C@@H](NC(=O)CNC(=O)[C@H](CCC(=O)O)NC(=O)[C@H](C)NC(=O)CCc1cnc[nH]1)[C@@H](C)O)[C@@H](C)O)C(C)C)C(=O)N[C@@H](C)C(=O)N[C@@H](Cc1c[nH]c2ccccc12)C(=O)N[C@@H](CC(C)C)C(=O)N[C@H](C(=O)N[C@@H](CCCCNC(=O)COCCOCCNC(=O)COCCOCCNC(=O)CC[C@H](NC(=O)CCCCCCCCCCCCCCCCC(=O)O)C(=O)O)C(=O)NCC(=O)N[C@@H](CCCNC(=N)N)C(=O)N[C@@H](CCCCNc1c(NCCCCCN(O)C(=O)CCC(=O)NCCCCCN(O)C(=O)CCC(=O)NCCCCCN(O)C(C)=O)c(=O)c1=O)C(=O)NCC(=O)NCC(=O)N[C@@H](CO)C(=O)N[C@@H](CCCCNc1c(NCCCCCN(O)C(=O)CCC(=O)NCCCCCN(O)C(=O)CCC(=O)NCCCCCN(O)C(C)=O)c(=O)c1=O)C(=O)NCC(=O)NCC(=O)N[C@@H](CO)C(=O)N[C@@H](CCCCNc1c(NCCCCCN(O)C(=O)CCC(=O)NCCCCCN(O)C(=O)CCC(=O)NCCCCCN(O)C(C)=O)c(=O)c1=O)C(=O)NCC(=O)NCC(=O)N[C@@H](CO)C(=O)N[C@@H](CCCCNc1c(NCCCCCN(O)C(=O)CCC(=O)NCCCCCN(O)C(=O)CCC(=O)NCCCCCN(O)C(C)=O)c(=O)c1=O)C(=O)O)C(C)C,"GLP1R (Homo sapiens, UniProt P43220)","agonist, CRE luciferase reporter",BHK cells,"metal-free DFO conjugate, with: 1% HSA",baseline: parent peptide,fold potency loss,3.7
Nc1ncc2c(n1)-c1c([nH]c3ccc(-c4ccc(F)cc4)cc13)CCC2,"PIP4K2C (Homo sapiens, UniProt Q8TBX8)",DiscoverX scanMAX,,1 µM,baseline: untreated control,remaining binding,15%
O=C(NCCN1CCCC1=O)c1ccc([C@H]2[C@@H](F)[C@@H](F)C[C@@H](F)[C@H]2F)cc1,,hepatocyte stability,cryopreserved mouse hepatocytes,1 µM,,hepatic clearance,21 mL/min/kg
O=C(O)CCCc1cc2cc(Cl)ccc2n1S(=O)(=O)c1ccc2ncsc2c1,"Ppara (Mus musculus, UniProt P23204)","receptor activation, agonist",,species mouse,baseline: internal control agonist,Emax,39%
CC1(C)CN(CCCCC(=O)N[C@@H](CCC(=O)O)C(=O)N[C@@H](CCC(=O)O)C(=O)N[C@H](CCCCNC(=O)CCCCCCC(=O)NCCCC[C@H](NC(=O)N[C@@H](CCC(=O)O)C(=O)O)C(=O)O)C(=O)O)CC[N]2CC(C)(C)[S][Tc]2(=[O])[S]1 (some centres unmarked) [technetium-99m labelled],"FOLH1 (Homo sapiens, UniProt Q04609)","radioligand, saturation binding",LNCaP,"1 h, 37 °C, with: [99mTc]TcO-6",,Bmax,10 ± 2.7 pmol/mg
Cn1cc(-c2ccc(-c3cncc(Cl)c3N3CCC4(CCNC4=O)CC3)cc2)cn1,COLO 205,"gene expression, microarray, refers to: C1orf61 mRNA",,"concentration not given, 2 h",baseline: untreated cells,log2 fold change,-3
O=C(NCCCNS(=O)(=O)c1ccc(OC(F)(F)F)cc1)C1=Cc2ccccc2S1(=O)=O,"PTPRC (Homo sapiens, UniProt P08575)",enzyme activity,,"25 to 30 µM, phosphatase selectivity panel",,inhibition,no inhibition
CC[C@@H]1[C@H](F)C(=O)N[C@@H]1COc1nccc2cc(C(N)=O)c(OC)cc12,"MAP2K6 (Homo sapiens, UniProt P52564)","ATP-site probe binding, ActivX profiling",THP-1 cell lysate,"0.2 mM, Lys1 site",,inhibition,-20.6%
O=C(COP(=O)(O)O)[C@@H](O)[C@H](O)[C@H](O)COP(=O)(O)O,"Pyruvate kinase PKM (PKM, Homo sapiens, UniProt P14618)","pyruvate kinase activity, activator",RKO cell lysate,with: AIM,,"minimum concentration, maximal activation",1520 ± 359 nM
CC(C)C[C@H](NC(=O)C[C@H](O)[C@H](CC(C)C)NC(=O)[C@H](Cc1c[nH]cn1)NC(=O)CNC(=O)[C@@H](NC(=O)[C@H](C)NC(=O)[C@H](Cc1c[nH]c2ccccc12)NC(=O)[C@H](CCC(N)=O)NC(=O)[C@@H](Cc1ccccc1)NC(=O)COCCOCCNC(=O)CCC(C(=O)O)N1CCN(CC(=O)O)CCN(CC(=O)O)CCN(CC(=O)O)CC1)C(C)C)C(N)=O (some centres unmarked) [lutetium-177 labelled],,,"BALB/c nu/nu mice, female, PC-3 xenograft tumour","intravenous, 100 pmol, 24 h, with: PA 300 µg",,tissue uptake,3.7 ± 0.9 %ID/g
CNc1ccc(-c2nc3ccc(O)cc3s2)cc1,"Amyloid-beta precursor protein, amyloid-beta (APP, Homo sapiens, UniProt P05067)","binding, competition binding",amyloid-beta aggregates,"250 nM, with: tritiated amyloid ligand",,inhibition,94.6% and 91.1%
O=C(COP(=O)(O)O)[C@@H](O)[C@H](O)[C@H](O)COP(=O)(O)O,"GMP synthase [glutamine-hydrolyzing] (Homo sapiens, UniProt P49915)","thermal proteome profiling, refers to: GMPS",HepG2 cell lysate,"concentration not given, 57 over 37 °C, mean",baseline: compound over control,thermal stability ratio,0.488
N=C(N)c1ncn([C@@H]2O[C@H](CO)[C@@H](O)[C@H]2O)n1,"uncharacterized protein (Trichomonas vaginalis, UniProt A2EYV3)",inhibitor,,,,ligand efficiency,0.59
NS(=O)(=O)c1cccc(-c2ccc(C3CCCCC3)cc2)c1,,hepatocyte stability,cryopreserved human hepatocytes,1 µM,,hepatic clearance,17 mL/min/kg

# For quick reference, copied from above:
Compound,tested on,test,test system,setting,how to read,endpoint,value
O=C(COP(=O)(O)O)[C@@H](O)[C@H](O)[C@H](O)COP(=O)(O)O,"Pyruvate kinase PKM (PKM, Homo sapiens, UniProt P14618)","pyruvate kinase activity, activator",RKO cell lysate,with: AIM,,"minimum concentration, maximal activation",1520 ± 359 nM
Nc1ncc2c(n1)-c1c([nH]c3ccc(-c4ccc(F)cc4)cc13)CCC2,"PIP4K2C (Homo sapiens, UniProt Q8TBX8)",DiscoverX scanMAX,,1 µM,baseline: untreated control,remaining binding,15%
